Results pooled from the literature.
Protocols differ between the studies behind these lines. Several values in a cell are separate wells, animals, samples, runs or records. Numbers after ± are the reported error.
PTPN1: Tyrosine-protein phosphatase non-receptor type 1 (PTPN1, Homo sapiens, UniProt P18031)

By UniProt entry, the sequences of proteins in these tests, tags left out. Residues count along the entry.
UniProt P18031, 1-321 limits assumed: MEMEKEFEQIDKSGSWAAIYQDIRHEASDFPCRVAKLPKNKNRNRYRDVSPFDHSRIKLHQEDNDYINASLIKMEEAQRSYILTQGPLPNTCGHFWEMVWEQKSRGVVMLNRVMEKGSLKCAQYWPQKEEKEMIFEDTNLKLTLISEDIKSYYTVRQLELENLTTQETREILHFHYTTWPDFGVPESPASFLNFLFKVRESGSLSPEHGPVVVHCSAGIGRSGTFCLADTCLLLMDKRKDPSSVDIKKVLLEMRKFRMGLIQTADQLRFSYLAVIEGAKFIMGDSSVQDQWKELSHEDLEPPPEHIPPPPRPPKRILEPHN
UniProt P18031, whole entry: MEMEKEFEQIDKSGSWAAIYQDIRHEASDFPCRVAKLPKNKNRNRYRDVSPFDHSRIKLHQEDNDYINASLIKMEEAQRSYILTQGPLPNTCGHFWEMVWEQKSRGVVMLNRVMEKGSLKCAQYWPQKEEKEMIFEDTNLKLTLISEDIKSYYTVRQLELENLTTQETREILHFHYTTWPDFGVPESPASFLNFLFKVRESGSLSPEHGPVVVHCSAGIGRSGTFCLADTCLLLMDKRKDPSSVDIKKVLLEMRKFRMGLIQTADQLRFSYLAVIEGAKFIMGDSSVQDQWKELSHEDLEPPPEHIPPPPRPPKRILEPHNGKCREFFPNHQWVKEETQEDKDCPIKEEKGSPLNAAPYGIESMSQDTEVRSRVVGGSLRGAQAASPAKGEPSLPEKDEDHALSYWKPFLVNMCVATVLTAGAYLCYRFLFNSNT
UniProt P28340, whole entry: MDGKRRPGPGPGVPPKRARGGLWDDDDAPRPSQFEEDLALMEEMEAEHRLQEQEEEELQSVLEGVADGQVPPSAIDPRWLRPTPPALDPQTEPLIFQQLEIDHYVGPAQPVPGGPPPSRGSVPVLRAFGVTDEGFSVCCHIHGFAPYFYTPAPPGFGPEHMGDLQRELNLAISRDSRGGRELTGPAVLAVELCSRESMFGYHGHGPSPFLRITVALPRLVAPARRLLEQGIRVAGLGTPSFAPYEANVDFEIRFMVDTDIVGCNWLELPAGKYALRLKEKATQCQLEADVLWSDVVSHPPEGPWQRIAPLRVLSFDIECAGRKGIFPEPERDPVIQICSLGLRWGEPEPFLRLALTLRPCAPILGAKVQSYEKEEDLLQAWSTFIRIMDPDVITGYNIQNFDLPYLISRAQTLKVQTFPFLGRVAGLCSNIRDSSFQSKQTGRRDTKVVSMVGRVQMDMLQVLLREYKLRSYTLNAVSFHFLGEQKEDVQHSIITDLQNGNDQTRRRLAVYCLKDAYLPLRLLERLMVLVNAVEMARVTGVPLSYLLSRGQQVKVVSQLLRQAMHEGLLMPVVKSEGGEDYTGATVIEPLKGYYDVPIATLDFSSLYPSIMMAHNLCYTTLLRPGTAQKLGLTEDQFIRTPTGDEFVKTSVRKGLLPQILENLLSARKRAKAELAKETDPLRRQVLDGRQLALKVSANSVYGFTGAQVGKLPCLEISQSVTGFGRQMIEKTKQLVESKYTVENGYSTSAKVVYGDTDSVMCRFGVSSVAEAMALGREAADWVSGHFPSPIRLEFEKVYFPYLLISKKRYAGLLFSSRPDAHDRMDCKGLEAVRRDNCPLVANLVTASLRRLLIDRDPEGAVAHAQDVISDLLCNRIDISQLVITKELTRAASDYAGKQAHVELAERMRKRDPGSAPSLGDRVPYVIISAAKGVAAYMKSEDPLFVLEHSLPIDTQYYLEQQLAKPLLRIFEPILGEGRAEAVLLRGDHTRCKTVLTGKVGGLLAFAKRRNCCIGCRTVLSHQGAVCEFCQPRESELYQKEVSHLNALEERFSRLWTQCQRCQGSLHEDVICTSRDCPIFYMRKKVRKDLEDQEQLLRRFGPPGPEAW
UniProt Q9BY41, whole entry: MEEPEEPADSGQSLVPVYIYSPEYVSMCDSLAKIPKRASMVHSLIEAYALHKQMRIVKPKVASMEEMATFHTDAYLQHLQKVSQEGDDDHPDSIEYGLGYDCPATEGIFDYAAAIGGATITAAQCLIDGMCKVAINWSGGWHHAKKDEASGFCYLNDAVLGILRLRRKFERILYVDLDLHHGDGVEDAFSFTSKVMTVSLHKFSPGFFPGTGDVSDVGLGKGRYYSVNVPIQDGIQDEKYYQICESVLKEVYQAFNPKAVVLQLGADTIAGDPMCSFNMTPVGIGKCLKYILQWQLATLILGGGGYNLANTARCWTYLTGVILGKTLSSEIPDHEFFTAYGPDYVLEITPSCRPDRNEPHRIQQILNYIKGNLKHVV
UniProt O15151, 23-111 limits assumed: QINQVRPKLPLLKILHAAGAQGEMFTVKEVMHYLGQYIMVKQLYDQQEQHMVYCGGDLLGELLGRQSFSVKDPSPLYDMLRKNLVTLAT
UniProt O60502, whole entry: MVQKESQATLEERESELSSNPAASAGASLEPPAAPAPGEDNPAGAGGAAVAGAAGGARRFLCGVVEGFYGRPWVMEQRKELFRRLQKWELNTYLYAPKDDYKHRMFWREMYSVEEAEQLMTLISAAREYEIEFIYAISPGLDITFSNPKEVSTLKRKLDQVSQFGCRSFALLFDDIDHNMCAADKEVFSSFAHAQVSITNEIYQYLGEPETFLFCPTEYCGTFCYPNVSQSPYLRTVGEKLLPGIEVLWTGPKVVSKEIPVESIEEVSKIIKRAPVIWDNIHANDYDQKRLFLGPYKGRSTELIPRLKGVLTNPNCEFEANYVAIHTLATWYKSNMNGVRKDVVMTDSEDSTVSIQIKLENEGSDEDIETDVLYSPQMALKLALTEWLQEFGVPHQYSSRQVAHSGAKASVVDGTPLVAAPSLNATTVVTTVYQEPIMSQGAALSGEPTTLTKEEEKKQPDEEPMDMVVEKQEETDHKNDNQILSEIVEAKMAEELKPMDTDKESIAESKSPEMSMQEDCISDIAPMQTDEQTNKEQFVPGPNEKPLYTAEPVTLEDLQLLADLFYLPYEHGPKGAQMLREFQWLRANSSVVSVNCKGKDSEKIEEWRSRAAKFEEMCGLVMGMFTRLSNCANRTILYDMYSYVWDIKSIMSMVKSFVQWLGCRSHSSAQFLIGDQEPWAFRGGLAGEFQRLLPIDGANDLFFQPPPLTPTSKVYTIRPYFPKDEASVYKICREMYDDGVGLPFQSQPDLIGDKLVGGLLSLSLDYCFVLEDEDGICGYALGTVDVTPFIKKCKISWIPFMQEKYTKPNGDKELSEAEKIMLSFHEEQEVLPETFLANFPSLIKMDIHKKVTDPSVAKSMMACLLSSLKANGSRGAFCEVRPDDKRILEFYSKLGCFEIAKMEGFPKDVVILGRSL
UniProt P0C7A3, whole entry: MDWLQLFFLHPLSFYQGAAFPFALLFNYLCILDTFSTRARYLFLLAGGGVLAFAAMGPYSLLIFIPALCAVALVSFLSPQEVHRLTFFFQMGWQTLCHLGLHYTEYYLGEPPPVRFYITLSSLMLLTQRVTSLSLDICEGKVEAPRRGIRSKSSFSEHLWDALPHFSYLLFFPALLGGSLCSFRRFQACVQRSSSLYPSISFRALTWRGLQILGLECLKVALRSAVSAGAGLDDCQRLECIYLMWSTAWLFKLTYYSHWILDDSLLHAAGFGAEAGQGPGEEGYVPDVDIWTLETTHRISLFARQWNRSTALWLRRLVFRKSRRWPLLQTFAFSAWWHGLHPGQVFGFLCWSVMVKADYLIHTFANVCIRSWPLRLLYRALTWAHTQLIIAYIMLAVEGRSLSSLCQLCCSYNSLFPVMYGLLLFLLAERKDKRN
UniProt O60704, 25-377 limits assumed: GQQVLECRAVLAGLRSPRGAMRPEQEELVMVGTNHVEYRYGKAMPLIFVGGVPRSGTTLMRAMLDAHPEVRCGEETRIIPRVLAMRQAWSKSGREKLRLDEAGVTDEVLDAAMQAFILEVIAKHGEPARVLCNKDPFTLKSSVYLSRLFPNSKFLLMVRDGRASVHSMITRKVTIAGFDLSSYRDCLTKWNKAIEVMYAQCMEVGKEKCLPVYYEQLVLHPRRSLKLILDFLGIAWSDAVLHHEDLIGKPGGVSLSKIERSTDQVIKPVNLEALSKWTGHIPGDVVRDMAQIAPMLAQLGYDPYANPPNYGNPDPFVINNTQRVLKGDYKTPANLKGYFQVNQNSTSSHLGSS
UniProt Q16539, whole entry: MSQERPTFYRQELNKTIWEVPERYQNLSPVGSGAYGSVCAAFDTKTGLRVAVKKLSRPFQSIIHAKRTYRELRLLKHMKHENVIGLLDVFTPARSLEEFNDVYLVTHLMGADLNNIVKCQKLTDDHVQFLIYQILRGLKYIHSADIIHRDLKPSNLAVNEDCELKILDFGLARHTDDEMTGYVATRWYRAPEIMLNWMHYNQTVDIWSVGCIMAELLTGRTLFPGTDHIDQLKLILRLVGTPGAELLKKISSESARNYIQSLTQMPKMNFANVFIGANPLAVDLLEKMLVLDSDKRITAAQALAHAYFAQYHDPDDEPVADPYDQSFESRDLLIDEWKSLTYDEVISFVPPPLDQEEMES
UniProt Q66478, 863-1012 limits assumed: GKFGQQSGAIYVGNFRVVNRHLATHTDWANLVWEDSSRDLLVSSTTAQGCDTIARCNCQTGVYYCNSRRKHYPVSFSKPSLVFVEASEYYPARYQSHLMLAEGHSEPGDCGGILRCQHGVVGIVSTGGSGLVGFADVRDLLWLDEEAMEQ
UniProt P12821, 30-1306 limits assumed: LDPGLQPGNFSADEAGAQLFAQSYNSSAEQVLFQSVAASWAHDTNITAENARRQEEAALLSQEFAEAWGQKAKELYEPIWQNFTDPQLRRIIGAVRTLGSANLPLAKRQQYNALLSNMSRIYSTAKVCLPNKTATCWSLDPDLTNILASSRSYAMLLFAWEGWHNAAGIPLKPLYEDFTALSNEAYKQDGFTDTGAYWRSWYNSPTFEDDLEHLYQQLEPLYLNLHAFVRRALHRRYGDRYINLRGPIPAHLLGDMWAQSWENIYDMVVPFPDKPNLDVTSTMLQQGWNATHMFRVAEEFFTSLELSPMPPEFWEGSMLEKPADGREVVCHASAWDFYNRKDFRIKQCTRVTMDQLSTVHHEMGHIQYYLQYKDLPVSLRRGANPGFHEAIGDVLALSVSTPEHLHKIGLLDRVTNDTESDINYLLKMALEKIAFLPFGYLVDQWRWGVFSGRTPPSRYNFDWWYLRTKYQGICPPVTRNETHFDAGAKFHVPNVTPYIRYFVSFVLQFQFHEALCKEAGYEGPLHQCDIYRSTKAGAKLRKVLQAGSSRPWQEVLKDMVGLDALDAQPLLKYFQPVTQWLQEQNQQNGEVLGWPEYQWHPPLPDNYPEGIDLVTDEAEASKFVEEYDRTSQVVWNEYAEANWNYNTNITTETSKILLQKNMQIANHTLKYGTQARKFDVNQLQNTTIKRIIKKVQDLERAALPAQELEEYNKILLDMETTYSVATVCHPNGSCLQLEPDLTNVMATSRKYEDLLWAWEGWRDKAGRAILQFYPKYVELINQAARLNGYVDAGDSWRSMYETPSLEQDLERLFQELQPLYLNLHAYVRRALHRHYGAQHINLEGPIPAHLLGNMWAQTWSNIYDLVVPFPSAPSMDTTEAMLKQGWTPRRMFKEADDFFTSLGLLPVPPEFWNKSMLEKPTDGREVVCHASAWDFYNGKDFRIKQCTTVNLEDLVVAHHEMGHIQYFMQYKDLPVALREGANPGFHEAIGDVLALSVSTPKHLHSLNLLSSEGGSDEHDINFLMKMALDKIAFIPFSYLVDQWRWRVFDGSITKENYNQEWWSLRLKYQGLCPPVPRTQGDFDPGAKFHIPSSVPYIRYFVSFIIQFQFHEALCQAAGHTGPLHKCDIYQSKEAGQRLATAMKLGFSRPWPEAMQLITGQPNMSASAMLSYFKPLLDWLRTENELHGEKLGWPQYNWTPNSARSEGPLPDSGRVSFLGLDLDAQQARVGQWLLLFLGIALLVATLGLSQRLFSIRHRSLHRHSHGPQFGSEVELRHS

SMILES = CC[C@H](C)[C@H](NC(=O)[C@H](CCCNC(=N)N)NC(=O)[C@H](CCCNC(=N)N)NC(C)=O)C(=O)N[C@@H](CO)C(=O)N[C@H](C(=O)N[C@@H](Cc1ccc(OP(=O)(O)O)cc1)C(=O)N[C@@H](C)C(=O)N[C@@H](C)C(N)=O)[C@@H](C)O; target or system = PTPN1; assay = substrate, continuous UV; conditions = pH 7.4, multiply phosphorylated peptides apparent; measurement = Km; result = 90 ± 7 µM
SMILES = CC/C=C\C/C=C\CCC/C=C/C=C/C=C\CCCC(=O)O; target or system = DNA polymerase delta catalytic subunit (POLD1, Homo sapiens, UniProt P28340); assay = enzyme activity, inhibitor; conditions = together with: 0.05 units polymerase; measurement = IC50; result = 31.8 ± 2 µM
SMILES = CC(=O)N[C@@H](C)C(=O)N[C@@H](C)C(=O)N[C@@H](C)C(=O)N[C@@H](C)C(=O)N[C@@H](C)C(=O)N[C@@H](Cc1ccc(OP(=O)(O)O)cc1)C(=O)N[C@@H](CCC(=O)O)C(=O)N[C@@H](CCC(=O)O)C(=O)N[C@H](C(=O)N[C@@H](Cc1c[nH]cn1)C(N)=O)C(C)C; target or system = PTPN1; assay = substrate, continuous UV; conditions = pH 7.4, multiply phosphorylated peptides apparent; measurement = Km; result = 32 ± 7 µM
SMILES = CC(=O)NCCCC[C@H](NC(=O)[C@H](CCCCNC(C)=O)NC(=O)[C@H](Cc1c[nH]cn1)NC(=O)[C@H](CCCNC(=N)N)NC(C)=O)C(=O)Nc1ccc2c(C)cc(=O)oc2c1; target or system = Histone deacetylase 8 (HDAC8, Homo sapiens, UniProt Q9BY41); assay = substrate; conditions = 25 °C; measurement = Km; result = 1300 ± 300 µM
SMILES = CC(=O)N[C@@H](C)C(=O)N[C@@H](CO)C(=O)N[C@@H](CO)C(=O)N[C@@H](CC(=O)O)C(=O)N[C@@H](CCC(=O)O)C(=O)N[C@@H](Cc1ccc(OP(=O)(O)O)cc1)C(=O)N[C@@H](C)C(=O)N[C@@H](C)C(N)=O; target or system = PTPN1; assay = substrate; conditions = pH 7.4, catalytic domain; measurement = Km; result = 1.8 ± 0.1 µM
SMILES = CC(=O)N[C@@H](C)C(=O)N[C@@H](C)C(=O)N[C@@H](C)C(=O)N[C@@H](C)C(=O)N[C@@H](C)C(=O)N[C@@H](Cc1ccc(OP(=O)(O)O)cc1)C(=O)N[C@@H](CCCNC(=N)N)C(=O)N[C@@H](Cc1c[nH]cn1)C(=O)N[C@@H](CCCNC(=N)N)C(=O)N[C@@H](CCCNC(=N)N)C(N)=O; target or system = PTPN1; assay = substrate, continuous UV; conditions = pH 7.4, multiply phosphorylated peptides apparent; measurement = Km; result = 234 ± 37 µM
SMILES = CN1C(=O)CCc2cc(CNC(C)(C)[C@@H](O)c3ccccc3)ccc21; test system = CD-1 mouse, male, brain; conditions = subcutaneous, 10 mg/kg; measurement = half-life; result = 7.53 h
SMILES = Cc1c(Cn2c(C)nc3c(C(=O)O)cc(N4CCOCC4)cc32)cccc1C(F)(F)F; target or system = C4-2B; assay = cell growth, WST-8; conditions = 3 days; measurement = EC50; result = 24.8 µM
SMILES = COc1cccc([C@@H]2N=C(c3ccc(OC)cc3OC(C)C)N(C(=O)N3CCNC(=O)C3)[C@@H]2c2ccc(Cl)cc2)c1 (relative stereo); target or system = Protein Mdm4 (MDM4, Homo sapiens, UniProt O15151); assay = isothermal titration calorimetry; conditions = 298 K; measurement = Kd; result = 12 ± 6 µM
SMILES = CC(=O)N[C@@H](C)C(=O)N[C@H](C(=O)N[C@@H](Cc1ccc(OP(=O)(O)O)cc1)C(=O)N[C@@H](C)C(=O)N[C@@H](CC(=O)O)C(=O)N[C@@H](Cc1c[nH]cn1)C(=O)N[C@@H](Cc1ccc(OP(=O)(O)O)cc1)C(=O)N[C@@H](C)C(=O)N[C@@H](C)C(N)=O)C(C)C; target or system = PTPN1; assay = substrate, continuous UV; conditions = pH 7.4, multiply phosphorylated peptides apparent; measurement = Km; result = 3.1 ± 0.6 µM
SMILES = CC(C)C[C@H](NC(=O)[C@@H](NC(=O)[C@H](CC(C)C)NC(=O)[C@H](CS)NC(=O)CNS(=O)(=O)c1cccc2c(N(C)C)cccc12)C(C)C)C(=O)O; target or system = geranylgeranyltransferase type-I (Rattus norvegicus, UniProt P53610+Q04631); assay = substrate, fluorescence; conditions = 30 °C, together with: GDP 30 µM and GGPP 10 µM; measurement = Km; result = 2.1 ± 1.1 µM
SMILES = CCCC[C@H](NC(=O)[C@H](CCC(N)=O)NC(=O)[C@@H](NC(=O)[C@H](CCC(=O)O)NC(=O)[C@H](CC(=O)O)NC(=O)[C@H](Cc1ccc(OP(=O)(O)O)cc1)NC(=O)[C@H](CC(C)C)NC(=O)[C@@H]1CCCN1C(=O)CNC(=O)[C@H](Cc1c[nH]c2ccccc12)NC(=O)[C@H](C)NC(C)=O)C(C)C)C(N)=O; target or system = PTPN1; assay = substrate; conditions = pH 7.4, catalytic domain; measurement = Km; result = 1.8 ± 0.1 µM
SMILES = CC(=O)N[C@H]1[C@H](OC[C@H](NC(=O)[C@H](Cc2c[nH]cn2)NC(=O)[C@H](C)NC(=O)[C@@H](NC(C)=O)C(C)C)C(=O)NCC(=O)N[C@@H](C)C(=O)N[C@@H](CCCCN)C(N)=O)O[C@H](CO)[C@@H](O)[C@@H]1O; target or system = Protein O-GlcNAcase (OGA, Homo sapiens, UniProt O60502); assay = substrate; conditions = pH 7.5, 37 °C, together with: 4MU-GlcNAc 200 µM competition; measurement = Km; result = 789 ± 36 µM
SMILES = CC(C)C[C@H](NC(=O)[C@H](Cc1ccccc1)NC(=O)[C@H](CO)NC(=O)[C@H](CO)NC(=O)CN)C(=O)N[C@@H](CO)C(=O)N1CCC[C@H]1C(=O)N[C@@H](CCC(=O)O)C(=O)N[C@@H](Cc1c[nH]cn1)C(=O)N[C@@H](CCC(N)=O)C(=O)NCCCCCC(=O)N[C@@H](CCCCNC(=O)CCCC[C@@H]1SC[C@@H]2NC(=O)N[C@@H]21)C(=O)NCC(=O)O; target or system = Membrane-bound ghrelin O-acyltransferase MBOAT4 (Mus musculus, UniProt P0C7A3); assay = substrate; conditions = pH 7; measurement = Km; result = 30.4 ± 5.1 µM
SMILES = CC[C@H](C)[C@H](NC(=O)[C@H](CC(=O)O)NC(=O)[C@@H]1CCCN1C(=O)[C@H](Cc1ccc(O)cc1)NC(=O)[C@H](Cc1ccc(O)cc1)NC(=O)[C@H](Cc1ccc(OS(=O)(=O)O)cc1)NC(=O)[C@H](CC(=O)O)NC(=O)[C@@H](NC(=O)[C@@H](N)C(C)C)[C@@H](C)O)C(=O)O; target or system = Protein-tyrosine sulfotransferase 2 (Homo sapiens, UniProt O60704); assay = substrate, LC-MS initial velocity; conditions = pH 7.5, 30 °C, reaction 2, together with: saturating PAPS; measurement = Km; result = 3.1 µM
SMILES = CC(C)C[C@H](NC(=O)[C@H](C)NC(=O)[C@H](CCCNC(=N)N)NC(=O)[C@H](CCCNC(=N)N)NC(=O)[C@H](CCCNC(=N)N)NC(=O)[C@H](C)NC(=O)[C@H](CC(C)C)NC(=O)[C@H](CCCNC(=N)N)NC(=O)[C@H](CO)NC(=O)[C@H](CCCCN)NC(=O)[C@H](CO)NC(=O)Cn1cc(COC(=O)[C@]2(C)C=C(C(=O)OC(C)(C)C)C(=O)CC2)nn1)C(=O)O; target or system = Mitogen-activated protein kinase 14 (MAPK14, Homo sapiens, UniProt Q16539); assay = enzyme activity, inhibitor, D-SENSOR kinase; conditions = 0.09145 µM, unit not given; how to read = baseline: untreated; measurement = remaining activity; result = 0.796 and 0.791 and 0.69
SMILES = CC(=O)N[C@@H](CC(=O)O)C(=O)N[C@H](C(=O)N[C@@H](C)C(=O)N[C@@H](CC(=O)O)C(=O)N[C@H](C(=O)N[C@@H](Cc1ccc(OP(=O)(O)O)cc1)C(=O)N[C@@H](C)C(=O)N[C@@H](C)C(N)=O)C(C)C)[C@@H](C)O; target or system = PTPN1; assay = substrate, continuous UV; conditions = pH 7.4, multiply phosphorylated peptides apparent; measurement = Km; result = 8.9 ± 1 µM
SMILES = C=C(C)C(=O)Nc1ccc(-c2c(-c3ccc(Oc4nccc(C)n4)c(F)c3)c3c(N)ncnc3n2C)cc1; target or system = MFE-319; assay = cell growth, CellTiter-Glo; conditions = 120 h, unit not given; how to read = baseline: untreated growth rate, higher = stronger inhibition; measurement = area over GR curve; result = 0.0307
SMILES = CC(=O)N[C@@H](CCCNC(=N)N)C(=O)N[C@H](C(=O)N[C@@H](CC(C)C)C(=O)N[C@@H](C)C(=O)N[C@@H](C)C(=O)N[C@@H](Cc1ccc(OP(=O)(O)O)cc1)C(=O)N[C@@H](C)C(=O)N[C@@H](C)C(=O)N[C@@H](C)C(=O)N[C@@H](C)C(N)=O)[C@@H](C)O; target or system = PTPN1; assay = substrate, continuous UV; conditions = pH 7.4, multiply phosphorylated peptides apparent; measurement = Km; result = 66 ± 17 µM
SMILES = CC(C)CC(NC(=O)C(Cc1ccccc1)NC(=O)c1cnc(C(=O)NC(Cc2ccccc2)C(=O)NC(CC(C)C)B(O)O)cn1)B(O)O (stereo not drawn); target or system = proteasome (human); assay = trypsin-like activity, inhibitor, Proteasome-Glo; test system = MM.1R; conditions = 24 h; measurement = IC50; result = > 0.018 µM
SMILES = CC(=O)N[C@@H](C)C(=O)N[C@@H](C)C(=O)N[C@@H](Cc1ccc(OP(=O)(O)O)cc1)C(=O)N[C@@H](CC(=O)O)C(=O)N[C@@H](CC(C)C)C(=O)N[C@@H](CC(=O)O)C(=O)N[C@@H](CCC(=O)O)C(=O)N[C@@H](Cc1ccc(O)cc1)C(N)=O; target or system = PTPN1; assay = substrate; conditions = pH 7.4, catalytic domain; measurement = Km; result = 1.9 ± 0.3 µM
SMILES = CC[C@H](C)[C@H](NC(=O)[C@H](CCCCN)NC(=O)[C@H](CC(=O)O)NC(=O)[C@H](CCCNC(=N)N)NC(=O)c1ccc(N=Nc2ccc(N(C)C)cc2)cc1)C(=O)N[C@H](C(=O)N[C@@H](Cc1ccccc1)C(=O)N[C@@H](CCSC)C(=O)NCC(=O)N[C@@H](CCCCN)C(=O)N[C@@H](Cc1ccccc1)C(=O)NCC(=O)N[C@@H](CCC(N)=O)C(=O)N[C@@H](CC(=O)O)C(=O)N[C@@H](CCC(=O)NCCNc1cccc2c(S(=O)(=O)O)cccc12)C(N)=O)[C@@H](C)O; target or system = Genome polyprotein, 2A protease (Enterovirus A71, UniProt Q66478); assay = protease activity, substrate, FRET; test system = enterovirus 71; conditions = pH 7.4, 30 °C; measurement = Km; result = 32.5 ± 2.87 µM
SMILES = N#Cc1c(-c2ccc(Cl)cc2Cl)n(-c2nc(-c3ccc(Cl)cc3)c3c(NC(=O)c4ccccc4)nnc-3[nH]2)[nH]c1=O; target or system = UACC-62; assay = SRB; conditions = 10 µM; measurement = cell growth; result = 30.1%
SMILES = COc1ccc2c(CC(=O)N[C@@H](CCCNC(=N)N)C(=O)N3CCC[C@H]3C(=O)N3CCC[C@H]3C(=O)NCC(=O)N[C@@H](Cc3ccccc3)C(=O)N[C@@H](CO)C(=O)N[C@@H](C)C(=O)N[C@@H](Cc3ccccc3)C(=O)N[C@@H](CCCCNc3ccc([N+](=O)[O-])cc3[N+](=O)[O-])C(=O)O)cc(=O)oc2c1; target or system = Angiotensin-converting enzyme (ACE, Homo sapiens, UniProt P12821); assay = enzyme activity, substrate, fluorogenic; test system = recombinant enzyme; measurement = Km; result = 57 ± 0.8 µM
SMILES = CC(C)C[C@H](NC(=O)[C@H](CC(N)=O)NC(=O)[C@@H](N)CC(=O)O)C(=O)N[C@@H](Cc1ccc(O)cc1)C(=O)N[C@@H](Cc1ccc(OP(=O)(O)O)cc1)C(=O)N[C@@H](Cc1c[nH]c2ccccc12)C(=O)N[C@@H](CC(=O)O)C(N)=O; target or system = PTPN1; assay = enzyme activity, substrate; conditions = pH 7.4; measurement = Km; result = 5.8 ± 0.8 µM
SMILES = CCOC(=O)c1c(-c2ccc(Cl)cc2Cl)n(-c2nc(-c3ccc(Cl)cc3)c3c(NC(=O)c4ccccc4)nnc-3[nH]2)[nH]c1=O; target or system = UACC-62; assay = SRB; conditions = 10 µM; measurement = cell growth; result = 14.3%
SMILES = CC(=O)N[C@@H](C)C(=O)N[C@@H](C)C(=O)N[C@@H](Cc1ccc(OP(=O)(O)O)cc1)C(=O)N[C@@H](Cc1c[nH]c2ccccc12)C(=O)N[C@@H](C)C(=O)N[C@@H](Cc1ccc(O)cc1)C(=O)N[C@@H](CC(=O)O)C(=O)N[C@@H](CC(=O)O)C(N)=O; target or system = PTPN1; assay = substrate; conditions = pH 7.4, catalytic domain; measurement = Km; result = 2.3 ± 0.4 µM
